{"data": "Measurements from different studies", "note": "Numbered parts are unrelated; each lists some results of a single study."}
{"data": "Block 1", "target": "Interferon regulatory factor 5, full length, phosphomimetic (IRF5, Homo sapiens, UniProt Q13568-2, residues 1-514, S451D/S453D/S456D/S462D)", "method": "protein-binding microarray", "form": "double-stranded DNA, one strand shown", "sample": "in vitro", "tested at": "940 nM top", "notes": "60-bp whole probe", "added": "salmon DNA 0.4 mg/ml", "reference": "random background probes", "direction": "higher = stronger binding", "constant ends, left off below": "GCCTAGCAC … GTCTTGATTCGCTTGACGCTGCTG"}
{"Sequence": "TTAGATTTCTGACTGGATTAGTGCTAG", "fitted relative affinity": "0.279 z-score"}
{"Sequence": "GACGATTTCGGGACTGGAGCCGTGCTA", "fitted relative affinity": "-0.139 z-score"}
{"Sequence": "AAGCTCCTATCTTATGATATAGTGCTA", "fitted relative affinity": "-0.0545 z-score"}
{"Sequence": "GACGGTAACCTACTGCTGACGTGCTAG", "fitted relative affinity": "-0.295 z-score"}
{"Sequence": "TCAAGGTTCAAGTTTACCACTGTGCTA", "fitted relative affinity": "-0.531 z-score"}
{"Sequence": "TTAGGGTTCCTTATCCTTTAGTGCTAG", "fitted relative affinity": "-0.304 z-score"}
{"data": "Block 2", "target": "Sox-I, HMG box (Salpingoeca helianthica)", "method": "Spec-seq", "form": "double-stranded DNA, one strand shown", "sample": "in vitro", "tested at": "not given", "notes": "whole probe, mean of replicates", "reference": "not given", "direction": "lower = stronger binding", "constant ends, left off below": "GAGTCGTCTCGTCAGCAC … GTTCCGTAGAGCACTCAGGTC", "Target sequence (chain)": "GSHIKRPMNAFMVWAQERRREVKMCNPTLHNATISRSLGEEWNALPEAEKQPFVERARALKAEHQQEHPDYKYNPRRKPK"}
{"Sequence": "ATTT", "relative binding energy [ln ratio]": -1.26}
{"Sequence": "TGCG", "relative binding energy [ln ratio]": 0.72}
{"Sequence": "AGGT", "relative binding energy [ln ratio]": 0.283}
{"Sequence": "TCCA", "relative binding energy [ln ratio]": -0.0899}
{"Sequence": "ATTC", "relative binding energy [ln ratio]": 0.613}
{"Sequence": "AACG", "relative binding energy [ln ratio]": -1.41}
{"Sequence": "GAAA", "relative binding energy [ln ratio]": 1}
{"data": "Block 3", "target": "Histone acetyltransferase KAT6A, both winged helices, GST fusion (KAT6A, Homo sapiens, UniProt Q92794, residues 1-181)", "method": "protein binding microarray", "form": "double-stranded DNA, one strand shown", "sample": "in vitro", "tested at": "not given", "notes": "8-mer, flanks averaged, mean of 2 arrays, mostly near background", "reference": "not given", "direction": "higher = stronger binding", "Construct (chain)": "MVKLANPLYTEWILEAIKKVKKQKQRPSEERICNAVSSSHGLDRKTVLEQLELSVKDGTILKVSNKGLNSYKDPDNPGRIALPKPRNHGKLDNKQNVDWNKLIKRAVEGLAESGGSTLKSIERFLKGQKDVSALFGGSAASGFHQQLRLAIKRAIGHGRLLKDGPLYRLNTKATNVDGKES"}
{"Sequence": "TCTCAGCA", "E-score": -0.187}
{"Sequence": "AGGCCCCT", "E-score": -0.192}
{"Sequence": "CGAGGACA", "E-score": -0.0416}
{"Sequence": "TAAATTAA", "E-score": -0.18}
{"Sequence": "CCGACTCG", "E-score": 0.0806}
{"Sequence": "CTCTTAAA", "E-score": -0.248}
{"data": "Further values, each from its own experiment"}
{"Substance": "PhoQ, residues 284 288 289 292 302 303 SMMNNA", "target": "PhoP, residues 12 14 15 18 19 TQAIL (Escherichia coli, UniProt P23836)", "test": "Sort-seq, item: YFP reporter", "system": "E. coli", "conditions": "PhoQ-PhoP variant library, added: 10 µM Mg2+", "how to read": "reference: high Mg2+ state, higher = stronger signaling", "measurement": "fold induction", "value": 22.4}
{"note": "Some of these lines once more (block 2):"}
{"Sequence": "ATTC", "relative binding energy [ln ratio]": 0.613}
{"Sequence": "AACG", "relative binding energy [ln ratio]": -1.41}
{"Sequence": "GAAA", "relative binding energy [ln ratio]": 1}
